Published values of several laboratories.
Parts stem from different laboratories: compare values within a part only. Values joined by “and” are separate records of one study, mostly repeats; a detail may differ.
UniProt Q13164, sequence (whole entry, looked up): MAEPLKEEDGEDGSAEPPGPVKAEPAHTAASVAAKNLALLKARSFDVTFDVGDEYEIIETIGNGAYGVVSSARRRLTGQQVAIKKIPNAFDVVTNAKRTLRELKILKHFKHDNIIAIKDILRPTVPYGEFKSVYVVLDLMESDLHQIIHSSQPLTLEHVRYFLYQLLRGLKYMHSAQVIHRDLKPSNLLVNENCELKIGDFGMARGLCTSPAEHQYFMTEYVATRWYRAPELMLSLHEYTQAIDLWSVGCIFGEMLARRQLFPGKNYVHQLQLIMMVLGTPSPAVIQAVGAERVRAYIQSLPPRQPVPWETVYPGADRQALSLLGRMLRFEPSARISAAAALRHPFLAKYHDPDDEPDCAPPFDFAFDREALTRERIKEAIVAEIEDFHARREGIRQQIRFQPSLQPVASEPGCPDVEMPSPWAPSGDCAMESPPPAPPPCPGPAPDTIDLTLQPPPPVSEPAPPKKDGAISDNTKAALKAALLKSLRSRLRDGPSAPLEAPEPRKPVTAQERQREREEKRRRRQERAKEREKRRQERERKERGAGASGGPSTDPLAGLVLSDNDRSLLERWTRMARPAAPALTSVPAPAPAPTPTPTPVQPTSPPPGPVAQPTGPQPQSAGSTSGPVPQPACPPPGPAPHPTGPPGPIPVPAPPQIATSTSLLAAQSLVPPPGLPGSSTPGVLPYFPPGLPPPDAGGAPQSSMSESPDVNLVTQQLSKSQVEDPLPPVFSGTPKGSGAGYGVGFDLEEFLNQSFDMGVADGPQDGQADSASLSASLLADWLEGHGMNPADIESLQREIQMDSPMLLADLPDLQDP
UniProt Q96SB4, sequence (whole entry, looked up): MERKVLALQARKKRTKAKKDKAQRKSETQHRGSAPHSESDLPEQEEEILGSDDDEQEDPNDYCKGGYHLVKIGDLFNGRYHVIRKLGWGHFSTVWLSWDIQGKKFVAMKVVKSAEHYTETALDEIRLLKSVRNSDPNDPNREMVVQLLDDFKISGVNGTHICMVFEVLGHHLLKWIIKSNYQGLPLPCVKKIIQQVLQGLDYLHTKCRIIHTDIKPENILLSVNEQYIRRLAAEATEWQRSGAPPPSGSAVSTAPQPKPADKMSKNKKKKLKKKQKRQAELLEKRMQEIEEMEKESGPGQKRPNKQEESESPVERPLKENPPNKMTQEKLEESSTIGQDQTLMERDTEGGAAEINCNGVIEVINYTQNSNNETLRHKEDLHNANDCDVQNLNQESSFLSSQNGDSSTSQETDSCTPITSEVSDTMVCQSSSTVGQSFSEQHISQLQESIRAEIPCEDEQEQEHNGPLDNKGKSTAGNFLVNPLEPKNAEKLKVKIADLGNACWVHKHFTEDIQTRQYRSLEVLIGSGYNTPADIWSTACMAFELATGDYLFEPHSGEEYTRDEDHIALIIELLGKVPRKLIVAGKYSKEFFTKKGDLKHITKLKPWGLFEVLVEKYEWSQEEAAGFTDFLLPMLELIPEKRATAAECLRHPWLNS
UniProt Q86Z02, sequence (whole entry, looked up): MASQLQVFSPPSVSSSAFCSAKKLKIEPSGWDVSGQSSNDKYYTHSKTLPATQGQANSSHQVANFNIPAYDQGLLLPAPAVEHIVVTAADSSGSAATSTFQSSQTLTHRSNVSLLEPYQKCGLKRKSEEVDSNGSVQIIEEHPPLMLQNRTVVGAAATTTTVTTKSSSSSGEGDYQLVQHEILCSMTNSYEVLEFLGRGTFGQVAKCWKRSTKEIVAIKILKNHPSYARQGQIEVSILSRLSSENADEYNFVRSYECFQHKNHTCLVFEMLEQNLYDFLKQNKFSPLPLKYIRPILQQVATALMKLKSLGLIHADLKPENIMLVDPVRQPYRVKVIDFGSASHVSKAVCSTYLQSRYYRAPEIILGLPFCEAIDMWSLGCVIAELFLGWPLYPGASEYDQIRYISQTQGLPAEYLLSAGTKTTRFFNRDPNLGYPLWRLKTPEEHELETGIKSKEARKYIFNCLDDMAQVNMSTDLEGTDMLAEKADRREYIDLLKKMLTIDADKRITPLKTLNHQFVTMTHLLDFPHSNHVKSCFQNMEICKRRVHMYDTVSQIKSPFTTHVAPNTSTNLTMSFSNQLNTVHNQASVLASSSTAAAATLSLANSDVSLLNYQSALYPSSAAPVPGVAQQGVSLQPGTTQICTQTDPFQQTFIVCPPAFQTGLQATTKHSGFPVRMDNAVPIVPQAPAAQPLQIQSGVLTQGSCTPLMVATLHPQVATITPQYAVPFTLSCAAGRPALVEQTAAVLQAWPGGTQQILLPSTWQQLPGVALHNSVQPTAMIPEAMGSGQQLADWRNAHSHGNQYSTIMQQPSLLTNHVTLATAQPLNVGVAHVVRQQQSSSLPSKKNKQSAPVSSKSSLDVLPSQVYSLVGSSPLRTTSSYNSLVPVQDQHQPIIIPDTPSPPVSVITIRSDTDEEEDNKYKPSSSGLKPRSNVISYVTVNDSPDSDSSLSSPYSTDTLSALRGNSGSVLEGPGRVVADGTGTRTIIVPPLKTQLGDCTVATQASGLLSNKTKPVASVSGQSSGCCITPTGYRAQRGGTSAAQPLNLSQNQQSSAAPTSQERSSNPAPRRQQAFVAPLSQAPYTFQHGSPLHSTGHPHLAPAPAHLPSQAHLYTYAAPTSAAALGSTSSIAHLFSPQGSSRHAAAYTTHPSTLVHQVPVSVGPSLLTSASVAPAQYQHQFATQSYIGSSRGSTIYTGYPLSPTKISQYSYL
UniProt P43403, sequence (whole entry, looked up): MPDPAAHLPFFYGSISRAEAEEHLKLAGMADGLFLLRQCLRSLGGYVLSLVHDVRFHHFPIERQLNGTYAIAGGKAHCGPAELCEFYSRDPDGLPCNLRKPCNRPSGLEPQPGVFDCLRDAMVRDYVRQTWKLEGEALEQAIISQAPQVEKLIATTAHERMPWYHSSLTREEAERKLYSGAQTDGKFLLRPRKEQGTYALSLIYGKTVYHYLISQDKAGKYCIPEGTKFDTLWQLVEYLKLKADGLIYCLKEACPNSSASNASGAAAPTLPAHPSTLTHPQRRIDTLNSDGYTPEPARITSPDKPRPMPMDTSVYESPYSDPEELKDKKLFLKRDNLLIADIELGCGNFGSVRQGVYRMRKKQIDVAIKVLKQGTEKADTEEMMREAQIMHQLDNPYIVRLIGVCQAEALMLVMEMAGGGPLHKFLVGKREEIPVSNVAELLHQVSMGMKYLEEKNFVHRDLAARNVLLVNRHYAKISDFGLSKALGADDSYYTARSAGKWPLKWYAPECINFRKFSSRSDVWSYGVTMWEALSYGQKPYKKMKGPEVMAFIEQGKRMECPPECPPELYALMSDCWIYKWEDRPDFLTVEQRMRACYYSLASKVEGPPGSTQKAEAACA
UniProt Q16539, sequence (whole entry, looked up): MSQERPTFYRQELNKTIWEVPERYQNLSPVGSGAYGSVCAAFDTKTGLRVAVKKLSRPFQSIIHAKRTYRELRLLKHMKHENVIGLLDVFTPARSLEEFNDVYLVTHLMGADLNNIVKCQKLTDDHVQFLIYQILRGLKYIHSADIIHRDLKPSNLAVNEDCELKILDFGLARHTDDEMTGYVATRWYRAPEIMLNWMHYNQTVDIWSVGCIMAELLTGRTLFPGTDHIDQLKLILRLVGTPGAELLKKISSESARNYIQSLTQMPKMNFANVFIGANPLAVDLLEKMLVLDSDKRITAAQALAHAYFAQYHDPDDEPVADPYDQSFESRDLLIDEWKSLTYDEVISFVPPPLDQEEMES

Study 1 — effect on: enzyme activity; mode: inhibitor; concentration: 0.5 µM; relative to: control
Target: Ephrin type-A receptor 1 (EPHA1, Homo sapiens, UniProt P21709)
UniProt P21709, sequence (whole entry, looked up): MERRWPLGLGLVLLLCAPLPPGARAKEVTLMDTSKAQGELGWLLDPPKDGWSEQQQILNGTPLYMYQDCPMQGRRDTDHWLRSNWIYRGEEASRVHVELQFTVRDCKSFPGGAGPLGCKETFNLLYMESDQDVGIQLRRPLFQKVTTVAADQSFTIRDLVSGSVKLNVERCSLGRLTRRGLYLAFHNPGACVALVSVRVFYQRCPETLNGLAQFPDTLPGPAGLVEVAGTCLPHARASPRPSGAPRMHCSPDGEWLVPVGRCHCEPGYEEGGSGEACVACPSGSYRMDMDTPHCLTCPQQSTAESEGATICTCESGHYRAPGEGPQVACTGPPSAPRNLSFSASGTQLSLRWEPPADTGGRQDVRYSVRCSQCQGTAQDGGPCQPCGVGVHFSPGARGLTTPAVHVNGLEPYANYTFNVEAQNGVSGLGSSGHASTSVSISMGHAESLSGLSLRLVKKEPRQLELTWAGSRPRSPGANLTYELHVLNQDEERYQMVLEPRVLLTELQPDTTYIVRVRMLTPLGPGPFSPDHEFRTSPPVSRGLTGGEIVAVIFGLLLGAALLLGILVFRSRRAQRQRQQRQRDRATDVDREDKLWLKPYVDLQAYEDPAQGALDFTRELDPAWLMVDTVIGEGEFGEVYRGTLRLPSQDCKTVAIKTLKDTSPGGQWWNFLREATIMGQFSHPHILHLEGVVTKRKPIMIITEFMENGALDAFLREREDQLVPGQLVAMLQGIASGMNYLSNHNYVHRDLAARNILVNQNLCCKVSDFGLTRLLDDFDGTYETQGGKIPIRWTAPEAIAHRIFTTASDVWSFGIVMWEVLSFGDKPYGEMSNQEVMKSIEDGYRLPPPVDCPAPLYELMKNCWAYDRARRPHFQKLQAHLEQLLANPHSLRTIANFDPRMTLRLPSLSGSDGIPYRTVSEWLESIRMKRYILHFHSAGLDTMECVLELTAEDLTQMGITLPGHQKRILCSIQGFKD
With `COc1cc2ncnc(Nc3ccc(O)c(Br)c3)c2cc1OC` the remaining activity was 80.4%.
For `CCN(CC)CCNC(=O)c1c(C)[nH]c(/C=C2\C(=O)Nc3ccc(Cl)cc32)c1C`, the remaining activity was 89.4%.
For `Cn1nc2c3c(cccc31)C(=O)c1ccccc1-2`, the remaining activity was 94.8%.
The remaining activity of `Cc1cn(-c2cc(NC(=O)c3ccc(C)c(Nc4nccc(-c5cccnc5)n4)c3)cc(C(F)(F)F)c2)cn1` is reported as 63.2%.
For `CCN(CC)C(=O)c1ccc(Nc2nc(OCC3CCCCC3)c3[nH]cnc3n2)cc1`, the remaining activity was 90.2%.
For `CN([C@@H](Cc1ccc(OS(=O)(=O)c2cccc3cnccc23)cc1)C(=O)N1CCN(c2ccccc2)CC1)S(=O)(=O)c1cccc2cnccc12`, the remaining activity was 102%.
With `Cc1cc2ncc(-c3ccccc3)nc2cc1C` the remaining activity was 99.9%.
`CCOc1nc(NC(=O)Cc2cc(OC)ccc2OC)cc(N)c1C#N` gave a remaining activity of 97.4%.
For `CN(C)C[C@H]1CCn2c(c(C3=C(c4cn(C)c5ccccc45)C(=O)NC3=O)c3ccccc32)C1`, the remaining activity was 100%.
`Nc1cccc(-c2cc3c(Oc4cccc(O)c4)ncnc3[nH]2)c1` has a remaining activity of 31.2%.
`Ic1cccc(CSc2nnc(-c3ccncc3)o2)c1` gave a remaining activity of 97%.
The remaining activity of `Cc1nc2cc3nc(-c4cccs4)cnc3cc2n1C` is reported as 87.1%.

Study 2 — effect on: cell-free assay; technique: competition with immobilised ligand; concentration: 0.1 µM
SMILES: C[C@H](c1ccnc(Nc2nc3ccc(-c4cc(N(C)C)ncn4)cc3[nH]2)c1)N1CCN(C(=O)CC(F)(F)F)CC1
The remaining binding was 87% (Serine/threonine-protein kinase Chk1 (CHEK1, Homo sapiens, UniProt O14757)).
Mitogen-activated protein kinase 7 (MAPK7, Homo sapiens, UniProt Q13164) — remaining binding: 100%.
It gave 85% for remaining binding (SRSF protein kinase 1 (SRPK1, Homo sapiens, UniProt Q96SB4)).
It gave 85% for remaining binding (Tyrosine-protein kinase receptor Tie-1 (TIE1, Homo sapiens, UniProt P35590)).
The remaining binding was 100% (Tyrosine-protein kinase ZAP-70 (ZAP70, Homo sapiens, UniProt P43403)).
Receptor-type tyrosine-protein kinase FLT3 (FLT3, Homo sapiens, UniProt P36888, N841I) — remaining binding: 43%.
It gave 100% for remaining binding (Serine/threonine-protein kinase DCLK3 (DCLK3, Homo sapiens, UniProt Q9C098)).
NUAK family SNF1-like kinase 2 (NUAK2, Homo sapiens, UniProt Q9H093) — remaining binding: 95%.
Mitogen-activated protein kinase 14 (MAPK14, Homo sapiens, UniProt Q16539) — remaining binding: 100%.
It gave 80% for remaining binding (Macrophage-stimulating protein receptor (MST1R, Homo sapiens, UniProt Q04912)).
It gave 100% for remaining binding (Homeodomain-interacting protein kinase 2 (HIPK2, Homo sapiens, UniProt Q9H2X6)).
It gave 95% for remaining binding (Homeodomain-interacting protein kinase 1 (HIPK1, Homo sapiens, UniProt Q86Z02)).
It gave 100% for remaining binding (Phosphatidylinositol 4-phosphate 5-kinase type-1 alpha (PIP5K1A, Homo sapiens, UniProt Q99755)).
The remaining binding was 98% (TGF-beta receptor type-2 (TGFBR2, Homo sapiens, UniProt P37173)).
Mast/stem cell growth factor receptor Kit (KIT, Homo sapiens, UniProt P10721, T670I/V559D) — remaining binding: 99%.
ALK tyrosine kinase receptor (ALK, Homo sapiens, UniProt Q9UM73) — remaining binding: 97%.

Study 3 — dose: dose not given; relative to: vehicle
Structure (SMILES): CC(=O)N[C@@H](Cc1c[nH]c2ccccc12)C(=O)N[C@@H](CCC(=O)C=[N+]=[N-])C(=O)OC(C)C
It gave 0.344 for “log2 fold change” (item: N-acetylputrescine; mouse, EL4 tumour-bearing, EL4 tumour).
item: trans-urocanate; mouse, EL4 tumour-bearing, EL4 tumour — “log2 fold change”: 0.637.
item: adenosine; mouse, EL4 tumour-bearing, EL4 tumour — “log2 fold change”: -0.693.
For item: gamma-tocopherol/beta-tocopherol; mouse, EL4 tumour-bearing, EL4 tumour: “log2 fold change” read 0.482.
For item: C5 acylcarnitine; Mus musculus, EL4 tumour: “log2 fold change” read -0.385.
The “log2 fold change” was 0.859 (item: creatine; mouse, EL4 tumour-bearing, EL4 tumour).
For item: galactitol; mouse, EL4 tumour, tumour: “log2 fold change” read 0.559.
The “log2 fold change” was 0.322 (item: pentose acid; Mus musculus, EL4 tumour).
item: pyrraline; mouse, EL4 tumour-bearing, EL4 tumour — “log2 fold change”: -1.01.
item: TMP; mouse, EL4 tumour-bearing, EL4 tumour — “log2 fold change”: -0.593.
The “log2 fold change” was -0.269 (item: oxidized glutathione; Mus musculus, EL4 tumour).
item: N-delta-acetylornithine; mouse, EL4 tumour-bearing, EL4 tumour — “log2 fold change”: -0.744.

Study 4 — effect on: RNA clamping; technique: fluorescence polarization; concentration: concentration not given; added: FAM-labelled poly r(AG)8 RNA; direction: higher = more clamping
Target: Eukaryotic initiation factor 4A-I (EIF4A1, Homo sapiens, UniProt P60842)
UniProt P60842, sequence (whole entry, looked up): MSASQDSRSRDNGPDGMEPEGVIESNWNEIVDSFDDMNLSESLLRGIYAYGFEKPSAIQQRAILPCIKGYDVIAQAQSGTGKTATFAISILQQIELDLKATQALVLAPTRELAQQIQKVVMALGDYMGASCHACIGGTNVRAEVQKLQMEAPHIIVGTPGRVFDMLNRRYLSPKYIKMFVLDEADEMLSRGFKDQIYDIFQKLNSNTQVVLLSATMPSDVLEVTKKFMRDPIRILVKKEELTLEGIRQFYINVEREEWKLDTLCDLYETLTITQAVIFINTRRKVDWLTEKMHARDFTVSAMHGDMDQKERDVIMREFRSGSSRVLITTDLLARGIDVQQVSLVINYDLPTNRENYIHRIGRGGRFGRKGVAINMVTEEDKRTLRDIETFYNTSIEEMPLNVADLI
Under “fluorescence polarization change”, `COc1ccc([C@@]23Oc4cc(OC)cc(OC)c4[C@]2(O)c2nc(N4CCOCC4)[nH]c(=O)c2[C@H]3c2ccccc2)cc1` is recorded as 54.1 mP and 45 mP.
For `COC(=O)[C@@H]1[C@@H](c2ccccc2)[C@]2(c3ccc(OC)cc3)Oc3cc(OC)cc(OC)c3[C@@]23NC(C(C)C)=N[C@@]13O`, “fluorescence polarization change” read 72.9 mP.
`COc1cc(OC)c2c(c1)O[C@@]1(c3ccc(OC)c(O)c3)[C@H](c3ccccc3)[C@@H](C(=O)c3ccco3)[C@@H](O)[C@@]21O` — result for “fluorescence polarization change”: 9.6 mP.
`C=CCn1c(-c2ccccc2)nc2c(c1=O)[C@@H](c1ccccc1)[C@]1(c3ccc(OC)cc3)Oc3cc(OC)cc(OC)c3[C@]21O` — result for “fluorescence polarization change”: 22.4 mP.
Under “fluorescence polarization change”, `COc1cc(OC)c2c(c1)O[C@@]1(c3ccc(C#N)cc3)[C@H](c3ccccc3)[C@@H](CN(C)C)[C@@H](O)[C@@]21O` is recorded as 88.5 mP.
For `COc1ccc([C@@]23Oc4cc(OC)cc(OC)c4[C@]2(O)C2=C(C(=O)N4CCC[C@H]4O2)[C@H]3c2ccccc2)cc1`, “fluorescence polarization change” read 42.7 mP.

Repeated from above (study 2):
The remaining binding was 87% (Serine/threonine-protein kinase Chk1 (CHEK1, Homo sapiens, UniProt O14757)).
Mitogen-activated protein kinase 7 (MAPK7, Homo sapiens, UniProt Q13164) — remaining binding: 100%.
It gave 85% for remaining binding (SRSF protein kinase 1 (SRPK1, Homo sapiens, UniProt Q96SB4)).
It gave 85% for remaining binding (Tyrosine-protein kinase receptor Tie-1 (TIE1, Homo sapiens, UniProt P35590)).
The remaining binding was 100% (Tyrosine-protein kinase ZAP-70 (ZAP70, Homo sapiens, UniProt P43403)).
Receptor-type tyrosine-protein kinase FLT3 (FLT3, Homo sapiens, UniProt P36888, N841I) — remaining binding: 43%.
It gave 100% for remaining binding (Serine/threonine-protein kinase DCLK3 (DCLK3, Homo sapiens, UniProt Q9C098)).
NUAK family SNF1-like kinase 2 (NUAK2, Homo sapiens, UniProt Q9H093) — remaining binding: 95%.
